Measurements collected from several papers.
A part holds a random share of what one study measured.

Set 1 — method: protein binding microarray; form: double-stranded DNA, one strand shown; sample: in vitro; concentration: not given; reference: not given; direction: higher = stronger binding
Target: Histone acetyltransferase KAT6A, winged helix 2, GST fusion (KAT6A, Homo sapiens, UniProt Q92794, residues 85-181)
Notes: 8-mer, flanks averaged, mean of 2 arrays, mostly near background
Residues (chain): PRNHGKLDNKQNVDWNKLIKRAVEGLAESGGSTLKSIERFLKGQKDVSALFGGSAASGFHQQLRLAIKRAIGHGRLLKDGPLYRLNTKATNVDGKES
| Oligonucleotide | E-score |
| --- | --- |
| CCGTACAG | -0.168 |
| AAACTTAA | 0.123 |
| ATGCACCA | 0.0374 |
| CACTGTAC | -0.287 |
| CAGGCTTC | 0.101 |
| CTCACAGA | -0.0041 |
| AATCTCGG | 0.0847 |
| ACGAGCTG | -0.00803 |
| GCACCGAC | 0.129 |
| ACTCGTCA | -0.124 |
| CTGCAGCA | 0.015 |
| TACAAACA | 0.0736 |
| AAATTGCG | 0.0185 |
| AAGATCAA | 0.0364 |
| CATCTCGG | 0.0658 |
| CTCAGATA | -0.0321 |
| GATTTCAA | 0.00945 |
| TCGCCCAA | 0.178 |
| CCCTCCAG | 0.0872 |
| TTCAAGAA | 0.201 |
| CGTCTCAG | 0.0279 |
| ACCCTTCG | 0.0678 |
| ACCCGATA | -0.153 |
| ACACTAGA | -0.0639 |
| AGCTGAGC | 0.0525 |

Set 2 — method: RNA Bind-n-Seq; form: RNA; sample: in vitro; concentration: 365 nM; reference: no-protein control; direction: higher = stronger binding
Target: RNA binding protein fox-1 homolog 2, RRM domain, GST-SBP tag (RBFOX2, Homo sapiens, UniProt O43251-10, residues 100-194)
Notes: natural RNA segment, single round, ends assumed
All sequences stand within: GGGAGUUCUACAGUCCGACGAUC … UGGAAUUCUCGGGUGCCAA
Residues (chain): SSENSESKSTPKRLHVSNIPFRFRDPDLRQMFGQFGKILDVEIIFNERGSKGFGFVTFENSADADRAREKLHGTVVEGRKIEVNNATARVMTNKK
| Oligonucleotide | RBNS enrichment (R) |
| --- | --- |
| CUUCUCAGCAGUCUCAUUCAAGCUAAGGCUUGCAUACUCAAUCUGUGCCGUAGUCUACACAUUUUUAGGGGAUAUUUCACCAAAAUACUUGACAUGGUAACAUCACUAUU | 0.344 |
| AGGGUACCCACCAGGCAGCUCACCAAGUCUCUGCUUUUGUAAAUUAAUUUUUUACCAUUGCUACGUGUCCCACCUGCUGUUUACAAUAAAGGCAGAUGUGUGACAGGCCU | 0.337 |
| UCUUUGUAGCAGGAUGGUACACAGCCAUCAGCAGAAUGAGUUAAAACCAACAAUGAAUUCAAUAUACCAGGAAAUAGAUUGUUAGUAGGGAAUGGCAUUAAAGGAAAAAA | 0.815 |
| AUUAAAUUCUCAGUGAGGCUAUCUUCCUUUUCCCCAGUAACAUUCCUGAAUUUACUGUUAUCUUAUUGUAGUACUUGCAUGACAUGGAUUCCUGAUAUCUGAUGAGAGGU | 3.23 |
| AAGUGAGCCAUAUUUAUUGUCUUUAGGAAAUCACUAAUUGCUCUUUGACUGCACUGUGGGUGAGUGUUCUGAGCUCCCAAUAUUGUACAGCAUCGUAAAUUAUCCAAGGA | 1.97 |
| AGGCAAGCUCAAAUUAACCUUUUGCCAUCAAACCUUGUAGCCGUCUUGGCAUGAAGGCAUGUUUUCCUUCUGGGGGUGGUGACAUGCCCUCCAGACGGCCUGCCAUCCAG | 1.78 |
| CCUCCAUUGGCUUCCUCACUCCAAAAUAGGUGCUGAUCCUUCCUAUUCCUAUUCUUUGCCACCUUUUGGGUGUGGUGUCACCAGCCUGUUUAGCCAAGUAGCUUUGGGCA | 0.654 |
| CCCUCACGGCUGAUCAAUAAUGUUGCAAAGGGAGACUACAGGGAUCUCACGACGAAUAUUCUGAUACAAUACUCAACCUCGGUAUAUAUAUAUGUGUAUAAAUAUAUGUA | 0.454 |
| GCCAGCCUGUCAUGCCCAGUCCCUCCCACCAGUGCCCUGGGCCUGUCCUGGGUCCCCUGACACAUUUCUUGCCCUUUUAUACAAUUUUCAAUUAAAACACCUAUUUUGUA | 0.861 |
| GAGAACACACUAAAGGACUCCUGAGUCACUACCACAGCCACCUGGAAACCACAAGGCAUUUGAUGCUACCGUUCUGGUCAGGGAUUGGGCUGCUUCUUCAGUUCCUAAUA | 0.407 |
| GACACAGAUUCUGGUUCAUUCAUUCAUUCAUUCCUUAGACAUUUUCGGUUUUACAAAGGAAGAACAGGUUUCCUAAGGCCGAGGAAAUCUUGGAGAAUAAAAAAGGACUU | 0.354 |
| GCAAAGCCUAGUGAAGGCUUCUCUCUGUGGGAUGGGAUGGUGGAGGGCCACAUGGGAGGCUCACCCCCUUCUCCAUCCACAUGGGAGCCGGGUCUGCCUCUUCUGGGAGG | 0.296 |

Set 3 — method: RNA Bind-n-Seq; form: RNA; sample: in vitro; concentration: 200 nM; notes: whole 134-nt RNA, ends assumed; together with: 150 mM KCl; reference: input library; direction: higher = stronger binding
Target: Ras GTPase-activating protein-binding protein 1, full length (G3BP1, Homo sapiens, UniProt Q13283)
UniProt Q13283, sequence (whole entry, looked up): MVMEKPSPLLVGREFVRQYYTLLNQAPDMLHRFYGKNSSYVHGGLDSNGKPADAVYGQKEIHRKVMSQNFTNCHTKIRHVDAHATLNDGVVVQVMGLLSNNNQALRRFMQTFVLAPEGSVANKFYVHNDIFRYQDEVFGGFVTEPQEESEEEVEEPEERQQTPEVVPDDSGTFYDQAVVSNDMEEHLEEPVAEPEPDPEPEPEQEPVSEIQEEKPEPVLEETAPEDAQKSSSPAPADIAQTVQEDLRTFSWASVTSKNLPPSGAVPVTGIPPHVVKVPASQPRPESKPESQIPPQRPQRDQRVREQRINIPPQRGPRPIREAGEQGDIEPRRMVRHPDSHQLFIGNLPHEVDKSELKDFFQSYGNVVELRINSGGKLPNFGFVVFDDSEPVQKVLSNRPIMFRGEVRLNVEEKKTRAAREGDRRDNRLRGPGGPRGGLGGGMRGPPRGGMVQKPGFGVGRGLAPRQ
All sequences stand within: GGGAGUUCUACAGUCCGACGAUC … UGGAAUUCUCGGGUGUCAAGG
| Oligonucleotide | log2 enrichment |
| --- | --- |
| ACAGGAAGUAAAAACAAAUGGAAAUGCUUCGGAUAGUGGCAGGGGUGGGGGUUGCUAAGGAAAGGGUGGGAUGGGAGUGGGUAAAGAGUU | 0.364 |
| UCAAGUCCUGUGCUACACAUCGUAUGUACCGAAUCGGGCCCGGGGCCCGGCCCGGAAAGUAUUAUGUUACGCCGUUCGGAUCUGCACUUC | -1.38 |
| CCUGUGCUACACAUCGUAUGUACCGAAUCGGGGUUUGGGGAAAAAGGGGAAAAAAAGGGGAAAGUAUUAUGUUACGCCGUUCGGAUCUGC | -0.0946 |
| CAAGUCCUGUGCUACACAUCGUAUGUACCGAAUCGGGAGGGUUUGGGAAAAAGGGAAAGUAUUAUGUUACGCCGUUCGGAUCUGCACUUC | 0.574 |
| UCCUCAAGUCCUGUGCUACACAUCGUAUGUACCGAAUCGGGUGGGGUGGUGGAAAGUAUUAUGUUACGCCGUUCGGAUCUGCACUUCCAG | 0.494 |
| CACAGACAACACGCACCCACACAGACACAGAGCGAAGGGGUUGGGAUGGGGACAGGGUGCACAGCAGGGCGGGGUAGGACCCCAGCCCCU | 1.93 |
| AGUCCUGUGCUACACAUCGUAUGUACCGAAUCAAACCCCCAAAUUUAAACCCCCAAAAAAGUAUUAUGUUACGCCGUUCGGAUCUGCACU | -0.377 |
| UCCUGUGCUACACAUCGUAUGUACCGAAUCGGAAAAAAAGGUUUUUUUGGUUUUUUUGGAAAGUAUUAUGUUACGCCGUUCGGAUCUGCA | -1.04 |
| UCCUGUGCUACACAUCGUAUGUACCGAAUCGGCCCCCCCGGCCCCCCCGGCCCCCCCGGAAAGUAUUAUGUUACGCCGUUCGGAUCUGCA | 0.376 |
| CUCAAGUCCUGUGCUACACAUCGUAUGUACCGAAUCGGGAAGGAAGGGGAAGGGAAAGUAUUAUGUUACGCCGUUCGGAUCUGCACUUCC | 1.18 |
| UCCUGUGCUACACAUCGUAUGUACCGAAUCGGGCCCCCCGGGCCCCCCGGGCCCCCCGGAAAGUAUUAUGUUACGCCGUUCGGAUCUGCA | -0.257 |
| UCCUCAAGUCCUGUGCUACACAUCGUAUGUACCGAAUCGUGUGUGUGUGUGUAAAGUAUUAUGUUACGCCGUUCGGAUCUGCACUUCCAG | 0.403 |
| CUCAAGUCCUGUGCUACACAUCGUAUGUACCGAAUCGGAAAGGUUUUUGGAGGAAAGUAUUAUGUUACGCCGUUCGGAUCUGCACUUCCA | -0.554 |
| CACAGACAACACGCACCCACACAGCCACAGAGGGAAGGGGUUGGGAUGGGGACAGGGUGCACAGCAGGGCGGGGUAGGACCCCAGCCCCU | 1.81 |

Set 4 — method: protein-binding microarray; form: double-stranded DNA, one strand shown; sample: in vitro; concentration: 2540 nM top; notes: 60-bp whole probe; together with: salmon DNA 0.4 mg/ml; reference: random background probes; direction: higher = stronger binding; all sequences stand within: GCCTAGCAC … GTCTTGATTCGCTTGACGCTGCTG
Target: Interferon regulatory factor 3, full length, phosphomimetic (IRF3, Homo sapiens, UniProt Q14653, residues 1-427, S386D/S396D/S398D/S402D/T404D/S405D)
Residues (chain): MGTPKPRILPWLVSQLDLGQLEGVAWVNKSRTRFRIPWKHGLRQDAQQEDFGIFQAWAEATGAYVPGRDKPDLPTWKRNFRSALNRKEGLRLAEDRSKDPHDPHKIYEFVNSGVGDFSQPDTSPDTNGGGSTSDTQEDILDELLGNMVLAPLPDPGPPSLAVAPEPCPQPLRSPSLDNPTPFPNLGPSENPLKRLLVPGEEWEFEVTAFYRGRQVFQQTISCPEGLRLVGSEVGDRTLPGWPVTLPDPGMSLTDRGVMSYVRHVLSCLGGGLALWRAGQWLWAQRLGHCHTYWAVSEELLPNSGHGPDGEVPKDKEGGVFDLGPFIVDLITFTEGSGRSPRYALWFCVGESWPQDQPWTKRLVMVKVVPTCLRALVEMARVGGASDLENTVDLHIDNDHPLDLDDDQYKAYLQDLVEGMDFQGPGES
| Oligonucleotide | fitted relative affinity [z-score] |
| --- | --- |
| TTGGGTATCGACTTTCGGTTAGTGCTA | 1.38 |
| GACGATATCGGGTTTCAAGACGTGCTA | 0.66 |
| GACGGACTGTGGTTTCGGGACGTGCTA | 1.66 |
| GACGATATCAGTTTCGAGAAGTGCTAG | 3 |
| CTAAATATCTTTGTTGAAAAGTGCTAG | 0.679 |
| GACGGTTTCTGTTCCGGGACGTGCTAG | 6.38 |
| TGGGAGCTCAGGAATCCCACGTGCTAG | -0.818 |
| GACGGTTTCGGTTGCGGGACGTGCTAG | 6.45 |
| TTAGAACTGGGGACTGGAATAGTGCTA | -0.743 |
| TTAGATCTCAGTTTCGATGAGTGCTAG | 2.37 |
| GGTCTTTCTGTTTTCTCCATGTGCTAG | 3.09 |
| AACGGTTTCCTACTGCTGACGTGCTAG | 5.58 |
| GACTGTTCCCTTTTCCTGACGTGCTAG | 5.07 |
| CCAAGTCTTGTTTTACAATTGTGCTAG | 0.91 |
| TTAGAACTTAGTATCGATTAGTGCTAG | 0.625 |
| GACGGACTGCTACTGATGACGTGCTAG | -0.51 |
| TTCGTTTTGTGTCTGGGCATGTGCTAG | 0.948 |
| TGTACTCTCTCCATGTGTTTGTGCTAG | 0.311 |
| CCCGCTTTTTTTTTTTTTTTGTGCTAG | 0.423 |
| GACGGTATACTTATCCTGACGTGCTAG | 0.492 |
| GACGGACTGGACTATCGGGTCGTGCTA | -0.391 |
| GACGAACTTGGGACTGGAGACGTGCTA | -0.427 |
| CCCCCAGGATTCAATTACCAGTGCTAG | 0.253 |
| TACGGTTTCGGGACTGGGGACGTGCTA | 4.12 |
| TTAGAACTGGGGTATCGATTAGTGCTA | -0.347 |

A few entries again (set 1):
| Oligonucleotide | E-score |
| --- | --- |
| ATGCACCA | 0.0374 |
| CACTGTAC | -0.287 |
| CAGGCTTC | 0.101 |
| CTCACAGA | -0.0041 |
| AATCTCGG | 0.0847 |
| ACGAGCTG | -0.00803 |
